Results pooled from the literature.
Every numbered part comes from another study and shows a few of its results, in no order.
Sequence of UniProt P54764 (whole entry, looked up): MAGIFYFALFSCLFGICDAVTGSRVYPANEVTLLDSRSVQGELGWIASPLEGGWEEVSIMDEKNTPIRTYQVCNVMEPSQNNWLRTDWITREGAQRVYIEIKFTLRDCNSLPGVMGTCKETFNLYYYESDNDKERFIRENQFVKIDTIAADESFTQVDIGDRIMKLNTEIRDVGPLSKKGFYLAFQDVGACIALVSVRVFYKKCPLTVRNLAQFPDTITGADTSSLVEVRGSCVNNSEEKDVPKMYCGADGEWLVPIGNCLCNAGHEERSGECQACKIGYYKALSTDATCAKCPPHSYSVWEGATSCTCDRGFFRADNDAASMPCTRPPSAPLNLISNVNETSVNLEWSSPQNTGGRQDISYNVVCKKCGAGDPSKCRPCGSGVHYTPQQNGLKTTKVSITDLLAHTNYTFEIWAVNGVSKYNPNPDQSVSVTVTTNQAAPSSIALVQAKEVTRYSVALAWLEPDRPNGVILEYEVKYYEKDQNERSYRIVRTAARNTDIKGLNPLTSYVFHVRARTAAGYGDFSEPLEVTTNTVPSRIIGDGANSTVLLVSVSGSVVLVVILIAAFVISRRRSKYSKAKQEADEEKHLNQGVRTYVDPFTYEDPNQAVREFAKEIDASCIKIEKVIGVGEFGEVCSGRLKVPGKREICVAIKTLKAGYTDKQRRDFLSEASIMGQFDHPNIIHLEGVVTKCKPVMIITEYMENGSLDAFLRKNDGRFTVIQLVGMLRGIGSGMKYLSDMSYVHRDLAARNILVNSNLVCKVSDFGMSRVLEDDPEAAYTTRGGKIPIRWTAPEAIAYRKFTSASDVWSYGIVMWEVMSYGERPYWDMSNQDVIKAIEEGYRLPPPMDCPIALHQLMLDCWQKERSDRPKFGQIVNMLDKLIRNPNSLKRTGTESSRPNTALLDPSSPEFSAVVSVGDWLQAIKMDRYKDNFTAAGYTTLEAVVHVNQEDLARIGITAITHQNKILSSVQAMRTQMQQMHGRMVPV
Sequence of UniProt Q14680 (whole entry, looked up): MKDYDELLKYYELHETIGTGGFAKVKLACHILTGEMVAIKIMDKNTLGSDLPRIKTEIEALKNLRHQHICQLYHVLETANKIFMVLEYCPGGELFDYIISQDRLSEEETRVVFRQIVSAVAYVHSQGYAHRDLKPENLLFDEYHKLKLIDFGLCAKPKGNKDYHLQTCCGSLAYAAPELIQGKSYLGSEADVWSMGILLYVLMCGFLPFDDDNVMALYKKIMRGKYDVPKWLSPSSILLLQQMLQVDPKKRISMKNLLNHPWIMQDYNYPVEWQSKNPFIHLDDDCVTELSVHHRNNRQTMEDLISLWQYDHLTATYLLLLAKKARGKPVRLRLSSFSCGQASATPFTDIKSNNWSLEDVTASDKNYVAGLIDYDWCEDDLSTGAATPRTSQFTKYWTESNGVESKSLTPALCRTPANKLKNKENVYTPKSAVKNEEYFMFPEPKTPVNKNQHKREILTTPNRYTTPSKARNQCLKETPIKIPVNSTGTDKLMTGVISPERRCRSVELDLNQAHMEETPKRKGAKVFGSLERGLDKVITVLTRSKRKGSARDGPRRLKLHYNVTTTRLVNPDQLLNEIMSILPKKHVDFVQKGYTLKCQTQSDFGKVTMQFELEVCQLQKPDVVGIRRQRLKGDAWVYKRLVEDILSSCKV
Sequence of UniProt P57059 (whole entry, looked up): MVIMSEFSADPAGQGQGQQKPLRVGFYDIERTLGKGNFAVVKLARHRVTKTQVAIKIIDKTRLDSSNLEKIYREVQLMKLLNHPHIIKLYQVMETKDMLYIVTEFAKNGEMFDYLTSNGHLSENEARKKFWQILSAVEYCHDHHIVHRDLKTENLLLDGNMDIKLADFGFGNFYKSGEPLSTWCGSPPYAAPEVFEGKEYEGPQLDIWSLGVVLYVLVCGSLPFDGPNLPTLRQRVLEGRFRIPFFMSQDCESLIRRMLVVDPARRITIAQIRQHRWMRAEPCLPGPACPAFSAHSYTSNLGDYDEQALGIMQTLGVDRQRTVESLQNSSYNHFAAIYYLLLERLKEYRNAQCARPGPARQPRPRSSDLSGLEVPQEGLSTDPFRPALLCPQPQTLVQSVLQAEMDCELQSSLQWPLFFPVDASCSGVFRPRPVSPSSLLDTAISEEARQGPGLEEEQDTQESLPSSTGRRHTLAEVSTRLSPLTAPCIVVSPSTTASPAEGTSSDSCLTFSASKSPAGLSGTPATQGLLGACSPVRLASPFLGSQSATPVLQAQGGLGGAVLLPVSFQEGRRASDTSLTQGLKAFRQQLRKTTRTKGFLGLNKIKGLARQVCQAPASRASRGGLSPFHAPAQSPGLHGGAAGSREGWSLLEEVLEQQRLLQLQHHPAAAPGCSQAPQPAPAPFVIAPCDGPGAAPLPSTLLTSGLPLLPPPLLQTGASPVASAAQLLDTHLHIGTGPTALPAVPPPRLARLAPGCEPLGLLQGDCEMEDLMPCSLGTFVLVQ
Sequence of UniProt Q9C7I9 (whole entry, looked up): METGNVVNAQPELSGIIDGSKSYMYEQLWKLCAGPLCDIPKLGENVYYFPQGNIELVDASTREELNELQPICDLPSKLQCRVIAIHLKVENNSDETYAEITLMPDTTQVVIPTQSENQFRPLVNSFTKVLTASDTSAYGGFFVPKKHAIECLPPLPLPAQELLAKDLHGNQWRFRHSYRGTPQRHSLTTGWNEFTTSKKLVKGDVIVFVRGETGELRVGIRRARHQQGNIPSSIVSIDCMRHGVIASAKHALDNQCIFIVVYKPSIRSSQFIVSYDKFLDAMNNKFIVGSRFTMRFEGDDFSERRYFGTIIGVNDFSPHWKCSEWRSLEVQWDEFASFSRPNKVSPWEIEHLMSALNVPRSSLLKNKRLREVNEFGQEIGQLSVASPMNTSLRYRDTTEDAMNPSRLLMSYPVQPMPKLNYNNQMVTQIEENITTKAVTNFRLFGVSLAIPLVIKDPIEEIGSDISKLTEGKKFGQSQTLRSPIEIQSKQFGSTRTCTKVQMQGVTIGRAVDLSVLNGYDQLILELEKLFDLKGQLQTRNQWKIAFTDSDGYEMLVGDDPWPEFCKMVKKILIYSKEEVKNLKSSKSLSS
Sequence of UniProt Q9FGV1 (whole entry, looked up): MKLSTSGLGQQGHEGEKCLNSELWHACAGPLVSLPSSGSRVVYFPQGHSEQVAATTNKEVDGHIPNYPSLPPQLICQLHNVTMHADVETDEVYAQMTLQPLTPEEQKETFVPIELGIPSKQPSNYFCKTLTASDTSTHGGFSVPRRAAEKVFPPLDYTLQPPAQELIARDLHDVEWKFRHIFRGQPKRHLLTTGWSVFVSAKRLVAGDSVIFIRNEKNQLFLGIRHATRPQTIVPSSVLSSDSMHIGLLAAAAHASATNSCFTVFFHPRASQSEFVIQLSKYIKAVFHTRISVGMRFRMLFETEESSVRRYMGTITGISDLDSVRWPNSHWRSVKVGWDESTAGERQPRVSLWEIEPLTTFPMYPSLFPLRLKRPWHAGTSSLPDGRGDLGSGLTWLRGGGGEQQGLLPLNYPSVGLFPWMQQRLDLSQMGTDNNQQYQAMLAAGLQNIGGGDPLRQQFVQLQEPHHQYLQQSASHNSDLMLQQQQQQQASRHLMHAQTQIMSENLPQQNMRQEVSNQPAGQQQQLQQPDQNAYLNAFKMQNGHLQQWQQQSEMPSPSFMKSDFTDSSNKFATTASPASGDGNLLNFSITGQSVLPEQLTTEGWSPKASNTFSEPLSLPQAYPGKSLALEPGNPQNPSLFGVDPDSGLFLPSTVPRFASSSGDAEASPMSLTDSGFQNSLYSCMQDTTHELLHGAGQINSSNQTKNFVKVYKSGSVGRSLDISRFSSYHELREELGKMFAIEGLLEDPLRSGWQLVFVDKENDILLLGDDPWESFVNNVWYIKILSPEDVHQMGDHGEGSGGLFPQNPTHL
Sequence of UniProt P46734 (whole entry, looked up): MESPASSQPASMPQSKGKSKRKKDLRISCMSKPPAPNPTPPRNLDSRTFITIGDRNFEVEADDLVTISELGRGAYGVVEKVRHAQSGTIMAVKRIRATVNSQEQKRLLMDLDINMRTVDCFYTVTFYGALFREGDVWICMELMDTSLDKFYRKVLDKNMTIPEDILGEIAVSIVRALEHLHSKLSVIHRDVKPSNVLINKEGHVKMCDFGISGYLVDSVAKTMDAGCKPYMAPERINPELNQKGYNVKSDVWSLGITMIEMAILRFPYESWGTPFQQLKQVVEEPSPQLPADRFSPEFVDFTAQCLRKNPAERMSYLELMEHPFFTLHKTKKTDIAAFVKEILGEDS
Sequence of UniProt Q9ZPY6 (whole entry, looked up): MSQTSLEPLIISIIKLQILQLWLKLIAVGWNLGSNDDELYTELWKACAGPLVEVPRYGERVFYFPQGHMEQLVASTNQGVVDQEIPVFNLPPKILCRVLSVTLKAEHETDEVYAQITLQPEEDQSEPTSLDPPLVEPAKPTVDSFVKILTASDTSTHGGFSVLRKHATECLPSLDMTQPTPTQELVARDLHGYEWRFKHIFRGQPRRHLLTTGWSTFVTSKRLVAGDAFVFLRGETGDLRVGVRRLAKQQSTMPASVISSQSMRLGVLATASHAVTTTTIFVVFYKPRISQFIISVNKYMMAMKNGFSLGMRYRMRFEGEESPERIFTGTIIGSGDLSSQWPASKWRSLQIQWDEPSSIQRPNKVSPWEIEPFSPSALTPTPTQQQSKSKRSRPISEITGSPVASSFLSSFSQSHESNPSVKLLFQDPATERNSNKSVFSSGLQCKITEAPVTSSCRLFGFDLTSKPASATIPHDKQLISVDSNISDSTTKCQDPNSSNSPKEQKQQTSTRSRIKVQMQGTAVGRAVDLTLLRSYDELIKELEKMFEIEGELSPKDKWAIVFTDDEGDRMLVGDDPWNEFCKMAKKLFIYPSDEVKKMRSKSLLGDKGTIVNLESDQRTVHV

Sample 1 — concentration: 0.1 µM
SMILES: Cc1cc(C)c(-n2ccn3nc(-c4cccnc4)cc23)cc1NC(=O)c1cc(C#N)cc(S(F)(F)(F)(F)F)c1
Non-receptor tyrosine-protein kinase TYK2, JH2 (TYK2, Homo sapiens, UniProt P29597); cell-free assay, competition with immobilised ligand — remaining binding: 87.3%.
For Dual specificity mitogen-activated protein kinase kinase 3 (MAP2K3, Homo sapiens, UniProt P46734); cell-free assay, competition with immobilised ligand: remaining binding read 81.9%.
The remaining binding was 100% (Ephrin type-A receptor 4 (EPHA4, Homo sapiens, UniProt P54764); cell-free assay, competition with immobilised ligand).
For Receptor tyrosine-protein kinase erbB-2 (ERBB2, Homo sapiens, UniProt P04626); cell-free assay, competition with immobilised ligand: remaining binding read 84.2%.
It gave 86.3% for remaining binding (Serine/threonine-protein kinase SIK1 (SIK1, Homo sapiens, UniProt P57059); competition binding).
For Dual specificity tyrosine-phosphorylation-regulated kinase 1B (DYRK1B, Homo sapiens, UniProt Q9Y463); cell-free assay, competition with immobilised ligand: remaining binding read 100%.
Serine/threonine-protein kinase B-raf (BRAF, Homo sapiens, UniProt P15056, V600E); cell-free assay, competition with immobilised ligand — remaining binding: 100%.
For MAP kinase-activated protein kinase 2 (MAPKAPK2, Homo sapiens, UniProt P49137); cell-free assay, competition with immobilised ligand: remaining binding read 100%.
The remaining binding was 89.1% (Calcium/calmodulin-dependent protein kinase type II subunit delta (CAMK2D, Homo sapiens, UniProt Q13557); cell-free assay, competition with immobilised ligand).
Tyrosine-protein kinase Srms (SRMS, Homo sapiens, UniProt Q9H3Y6); cell-free assay, competition with immobilised ligand — remaining binding: 67.4%.
The remaining binding was 100% (Protein kinase C theta type (PRKCQ, Homo sapiens, UniProt Q04759); cell-free assay, competition with immobilised ligand).
For Rhodopsin kinase GRK1 (GRK1, Homo sapiens, UniProt Q15835); cell-free assay, competition with immobilised ligand: remaining binding read 71.2%.
Maternal embryonic leucine zipper kinase (MELK, Homo sapiens, UniProt Q14680); cell-free assay, competition with immobilised ligand — remaining binding: 100%.
For Cytoplasmic tyrosine-protein kinase BMX (BMX, Homo sapiens, UniProt P51813); cell-free assay, competition with immobilised ligand: remaining binding read 76.7%.

Sample 2 — Molecule: B1 (ARF5 788-902); technique: two-hybrid; direction: higher = firmer interaction
B1: ARF5 788-902 (Arabidopsis thaliana, UniProt P93024); chain ATPRVRTYTKVQKTGSVGRSIDVTSFKDYEELKSAIECMFGLEGLLTHPQSSGWKLVYVDYESDVLLVGDDPWEEFVGCVRCIRILSPTEVQQMSEEGMKLLNSAGINDLKTSVS
It gave 0 for positive tests (ARF8 699-811 (Arabidopsis thaliana, UniProt Q9FGV1); relative to: out of 3 tests).
ARF17 (Arabidopsis thaliana, UniProt Q84WU6); weak activation fusion; relative to: out of 2 tests — positive tests: 0.
For ARF20 484-590 (Arabidopsis thaliana, UniProt Q9C7I9); relative to: out of 2 tests: positive tests read 0.
For ARF11 500-622 (Arabidopsis thaliana, UniProt Q9ZPY6); relative to: out of 2 tests: positive tests read 0.

Sample 3 — technique: aptamer microarray, sandwich; molecule type: DNA with 2'F-ANA; medium: in vitro; concentration: 200 nM; added: Cy3 exosite-II aptamer, 400 nM; direction: higher = stronger binding; strand: GGTTGGTGTGGTTGG
Target: Prothrombin, mature alpha-thrombin (F2, Homo sapiens, UniProt P00734)
Setting: whole 15-mer aptamer, many near background
`2'F-ANA at 3 6 8 10 11 13 14 15` — result for “mean fluorescence intensity”: 287 a.u.
For `2'F-ANA at 1 2 3 4 8 9 10 12 14 15`, “mean fluorescence intensity” read 50.8 a.u.
`2'F-ANA at 2 3 4 6 10 13 14 15`: “mean fluorescence intensity” 164 a.u.
For `2'F-ANA at 5 6 12 14`, “mean fluorescence intensity” read 48.5 a.u.
`2'F-ANA at 1 4 7 11 12 13 14 15`: “mean fluorescence intensity” 136 a.u.
Under “mean fluorescence intensity”, `2'F-ANA at 1 2 4 6 7 10 11 12 13` is recorded as 63.5 a.u.
Under “mean fluorescence intensity”, `2'F-ANA at 1 2 3 4 6 7 8 10 12` is recorded as 75.8 a.u.
For `2'F-ANA at 2 8 9 11 12 13 14 15`, “mean fluorescence intensity” read 158 a.u.

Sample 4 — Structure (SMILES): Nc1ncnc2c1cnn2-c1ccccc1; effect on: enzyme activity; mode: inhibitor; concentration: 0.5 µM; relative to: control
It gave 73% for remaining activity (Epidermal growth factor receptor (EGFR, Homo sapiens, UniProt P00533)).
The remaining activity was 94.2% (Proto-oncogene tyrosine-protein kinase ROS (ROS1, Homo sapiens, UniProt P08922)).
Aurora kinase A (AURKA, Homo sapiens, UniProt O14965) — remaining activity: 91.9%.

Further values, each from its own experiment
`CC(C)n1cnc(-c2ccc(F)cc2)c1-c1ncc(C(=O)Nc2ccc(N3CCN(C)CC3)cc2)[nH]1` has a treatment-emergent AE of 0% (refers to: endocrine disorders; human, idiopathic pulmonary fibrosis; dose not given, trial, all arms pooled).

For quick reference, copied from above (sample 3):
`2'F-ANA at 1 4 7 11 12 13 14 15`: “mean fluorescence intensity” 136 a.u.
Under “mean fluorescence intensity”, `2'F-ANA at 1 2 4 6 7 10 11 12 13` is recorded as 63.5 a.u.
Under “mean fluorescence intensity”, `2'F-ANA at 1 2 3 4 6 7 8 10 12` is recorded as 75.8 a.u.
